Published values from different studies.
Numbered parts are unrelated; each lists some results of a single study.

Series 1
Target: Interferon regulatory factor 7, full length, phosphomimetic (IRF7, Homo sapiens, UniProt Q92985, residues 1-503, S471D/S472D/S475D/S476D/S477D/S483D/S484D/S487D)
Method: protein-binding microarray
Form: double-stranded DNA, one strand shown
Sample: in vitro
Tested at: 2200 nM top
Notes: 60-bp whole probe
With: salmon DNA 0.4 mg/ml
Baseline: random background probes
Direction: higher = stronger binding
Shared flanks, not repeated: GCCTAGCAC … GTCTTGATTCGCTTGACGCTGCTG
Target sequence (chain): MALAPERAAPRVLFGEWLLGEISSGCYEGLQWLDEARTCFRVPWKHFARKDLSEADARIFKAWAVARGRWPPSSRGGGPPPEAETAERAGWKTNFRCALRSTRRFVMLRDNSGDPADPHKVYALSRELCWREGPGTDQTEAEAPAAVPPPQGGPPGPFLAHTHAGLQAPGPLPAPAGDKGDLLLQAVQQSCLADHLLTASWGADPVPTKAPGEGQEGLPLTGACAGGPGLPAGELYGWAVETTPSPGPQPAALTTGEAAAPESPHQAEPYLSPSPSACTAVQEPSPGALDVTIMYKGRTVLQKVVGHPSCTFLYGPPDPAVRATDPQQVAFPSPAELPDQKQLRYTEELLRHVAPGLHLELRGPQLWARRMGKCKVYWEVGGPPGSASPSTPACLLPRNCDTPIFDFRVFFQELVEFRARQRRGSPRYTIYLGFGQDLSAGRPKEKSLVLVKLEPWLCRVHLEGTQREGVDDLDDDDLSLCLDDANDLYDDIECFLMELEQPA
For `TTAGGTTGCGGTATCGGTTAGTGCTAG`, “fitted relative affinity” read 0.691 z-score.
For `ATAGGACTGGGGTTTCGGTTAGTGCTA`, “fitted relative affinity” read 2.88 z-score.
`GACGGACTGGACACTGTGGACGTGCTA` — result for “fitted relative affinity”: -0.649 z-score.
For `GTCGTCACTGCCATAATGCGGTGCTAG`, “fitted relative affinity” read 0.233 z-score.
For `GACGCACTGGGTCTCGGGACGTGCTAG`, “fitted relative affinity” read -0.501 z-score.
Under “fitted relative affinity”, `TCATTTCCCAACATCAGACTGTGCTAG` is recorded as 2.48 z-score.
`AACGATTTCGGGTATCGAGACGTGCTA`: “fitted relative affinity” 3.01 z-score.
`TCATCTTTTATTTTTTTACTGTGCTAG` — result for “fitted relative affinity”: 1.28 z-score.
Under “fitted relative affinity”, `TTAGGACTGGGGACGGGGTTAGTGCTA` is recorded as -0.121 z-score.
`TTAGGTATCGGATATCGGTTAGTGCTA` — result for “fitted relative affinity”: 0.274 z-score.
`TTAGGTTGCGGACTGGGTTAGTGCTAG`: “fitted relative affinity” -0.311 z-score.
`GACGATATCGGCACTGGAGACGTGCTA` — result for “fitted relative affinity”: -0.242 z-score.
Under “fitted relative affinity”, `GACGATCTCAGTTTCGAAACGTGCTAG` is recorded as 3.53 z-score.
`CTAATTCTCTTTTCACTTTCGTGCTAG` — result for “fitted relative affinity”: 5.22 z-score.
Under “fitted relative affinity”, `GACGGTATCGGTTTTCGGGACGTGCTA` is recorded as 2.67 z-score.
For `GACGGACTGGACTTTCGGTACGTGCTA`, “fitted relative affinity” read 3.18 z-score.
`TTAGGACTGCTGATCCTTTAGTGCTAG` — result for “fitted relative affinity”: -0.0626 z-score.
For `GACGGACTGGACAGTGGGGACGTGCTA`, “fitted relative affinity” read -0.805 z-score.
Under “fitted relative affinity”, `TTAGGTTTCGGTATGGGTTAGTGCTAG` is recorded as 7.36 z-score.
`TTAGAACTGGCGACTGGATTAGTGCTA` — result for “fitted relative affinity”: -0.672 z-score.
`TTAGGTTTCGCCTTTCGGTTAGTGCTA` — result for “fitted relative affinity”: 7.72 z-score.
`GTCGGTATCGACTTTCGGGACGTGCTA` — result for “fitted relative affinity”: 3.45 z-score.

Series 2
Target: Histone acetyltransferase KAT6A, winged helix 1, GST fusion (KAT6A, Homo sapiens, UniProt Q92794, residues 1-85)
Method: protein binding microarray
Form: double-stranded DNA, one strand shown
Sample: in vitro
Tested at: not given
Notes: 8-mer, flanks averaged, mean of 2 arrays, mostly near background
Baseline: not given
Direction: higher = stronger binding
Target sequence (chain): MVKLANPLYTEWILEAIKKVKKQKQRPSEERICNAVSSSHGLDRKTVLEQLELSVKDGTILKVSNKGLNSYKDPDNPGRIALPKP
`CTTCTAGA` gave an E-score of -0.0894.
With `GTAACACA` the E-score was 0.0332.
The E-score of `TCAAGCGA` is reported as 0.0237.
The E-score of `GCAACAGC` is reported as 0.164.
With `AGTCGAAC` the E-score was -0.155.
The E-score of `AAAGGAAG` is reported as -0.108.
With `TATCAATA` the E-score was -0.135.
With `ATTTGACC` the E-score was -0.0673.
With `CGTGTAGC` the E-score was 0.0586.
With `AACAAGTA` the E-score was -0.135.
`GACAACTA` has an E-score of -0.155.
`ACCGCTAA` gave an E-score of 0.21.
For `AATCTCAC`, the E-score was -0.0741.
The E-score of `CCGGGAGG` is reported as 0.18.
The E-score of `CAACACGG` is reported as 0.207.
The E-score of `GGGAGCAA` is reported as -0.053.
For `CGAGTCAG`, the E-score was 0.0566.
With `AAGTATGC` the E-score was 0.0396.
`AGTGACAG` gave an E-score of -0.0923.

Series 3
Target: RNA binding protein fox-1 homolog 2, RRM domain, GST-SBP tag (RBFOX2, Homo sapiens, UniProt O43251-10, residues 100-194)
Method: RNA Bind-n-Seq
Form: RNA
Sample: in vitro
Tested at: 365 nM
Notes: natural RNA segment, single round, ends assumed
Baseline: no-protein control
Direction: higher = stronger binding
Shared flanks, not repeated: GGGAGUUCUACAGUCCGACGAUC … UGGAAUUCUCGGGUGCCAA
Target sequence (chain): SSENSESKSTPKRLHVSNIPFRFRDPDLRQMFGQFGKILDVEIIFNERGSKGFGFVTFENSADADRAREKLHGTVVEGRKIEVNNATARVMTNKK
Under “RBNS enrichment (R)”, `CCAACUACCACAUAGCAAGAGCCCAGCUCUUGGGAGCAUUGAGAUGUAAGCUCAGGGUUACACAGUUCCAAAUCUUGGGAAGGGGCUUUUCAGACAGACUGUUUGCUUUC` is recorded as 0.272.
`UCCGUCCCCCUGGCCCCUCAGUGUCCAUGUCUUGAGCUUAAUAAAUGUGCAUUUGGUUUUUUCCUCUGUUCUGUCUGUGUGUUCUCAUCUGUGGGGCACGGUGUGGGUAG`: “RBNS enrichment (R)” 0.593.
For `UCAUCCCGAGCACCUCCACAUCCUCCACGUUCUGCUCAUCAUUCUCUGUCUCAUCCAUCAUCAUGUGUGUCCACGACUGUCUCCAUGGCCCUGCAAAAGGACUCUCAGGA`, “RBNS enrichment (R)” read 0.723.
Under “RBNS enrichment (R)”, `UUUCCUUUUUGACACUGAAAGUUUUGUAAAAGAAAUCCUAUCCAUACACGUUGUAAGAUGUGAAUUAUUGACACUGAGCUAACUGUACUGUUUGGAAAGGGGCCCUCAAG` is recorded as 0.304.
Under “RBNS enrichment (R)”, `CAUUAAAAGUAUUAUCUUUAUCAACAUUUGCUGCUACUGUGUUAACAUUUUUGUUUUGCUUGCCAUGAAUUUCAACUUCCACCACCCAGUGAAUUGAUUUAUAAAUUGCU` is recorded as 1.69.
`CCACCUCAGGCAGCUGUUACUCAGCCUCCGUUACCUGCUGUAGACUGUCAGCAUCCUCACACAGCGCCUCCAUUACAUGGAAAGGGCUGGCUGCAGUCUCAACCAGGAAU`: “RBNS enrichment (R)” 0.308.
Under “RBNS enrichment (R)”, `UCCACCUUACAAGCAAGGAAAGGAAUAUUGACCUUCAAACUCAUUCAGUGUUGGAGCUCUCUAUGAGGCCUUCUAUCCUUUGGCCCAUGCCUUGGAUGGAGACAGACACU` is recorded as 0.266.
`AACACUGGCCCGGAAGCCGCCCUCCAUACAGGCCCUCAGGGGGCCUGCCUUCUGCGCCUCAGUCCCCCGUGCAUCCCUGGGCCUGGGUAUCACAUGCUCUCCAGGAAAGG`: “RBNS enrichment (R)” 1.55.
`CACUAUUUUUUUUUUUAAAUCAUUUAUCCUAGAGAAGGACUCUGAUCCUUGCUUUCCUAGGUAAAUUAUGCUGGAGUGCUUCCAGUACUAAGGCCUCUUGAUUCUUUCCC`: “RBNS enrichment (R)” 0.572.
`UGUCCUUAAUGCUGCUUCUGUUAACAGUGAUCUCUUUCUUUUUUUCAUUCUUAUAUCUUCAUUAGUUCAUCAUAAAUCUGUCCAGUUGAGGCCUCAGGACCACGGCAUGA`: “RBNS enrichment (R)” 3.83.
For `CUUUUUUGGAUCACUAAGGACUAUGACCUCUGAGUAACCUGAUGACCUGAGAAAGAGUAAGGAGGCCAGGCAGGGCCUUGGGCCCAGGAACAGGUACCUUGAGAGUGAGA`, “RBNS enrichment (R)” read 0.675.
`AGCUGAUGUGAUAGUCAGCUUCUCUGGAGUCAACAGGGUGAAUCCUUCCCAAGUCCAGCCAUGCCCAGAUGCCCGGAGGGAAAACUGACCCCCAGCCAGUAGACAUUGGC`: “RBNS enrichment (R)” 0.306.

Series 4
Target: RING finger protein unkempt homolog, zinc fingers 1-6, GST-SBP tag (UNK, Homo sapiens, UniProt Q9C0B0, residues 30-357)
Sequence of UniProt Q9C0B0 (30-357, looked up): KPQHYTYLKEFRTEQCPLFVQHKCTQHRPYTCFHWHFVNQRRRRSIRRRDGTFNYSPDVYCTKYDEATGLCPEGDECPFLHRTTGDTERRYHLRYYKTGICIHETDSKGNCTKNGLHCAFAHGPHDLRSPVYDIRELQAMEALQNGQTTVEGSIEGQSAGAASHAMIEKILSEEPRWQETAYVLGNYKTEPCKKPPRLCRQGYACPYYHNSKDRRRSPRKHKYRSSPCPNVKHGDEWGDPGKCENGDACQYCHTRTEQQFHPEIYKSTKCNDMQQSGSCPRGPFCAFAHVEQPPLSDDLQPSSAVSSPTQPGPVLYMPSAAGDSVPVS
Method: RNA Bind-n-Seq
Form: RNA
Sample: in vitro
Tested at: not given
Notes: RNA with constant flanks, human-mouse chimeric sites, ends assumed
Baseline: input RNA pool
Direction: higher = stronger binding
Shared flanks, not repeated: GGGAGUUCUACAGUCCGACGAUC … CAACAGAGGAUUGAGCAUCA
With `GUGACUGGUGUUAAGAUUUCCCCUCAGAAAAGAACUGCAGUAGUCACCAUAAUUCCAUCUGUGGUGAGUGCCAGUCAGAUUGUGGAGCUGGUCCCAGAACUCAGUUUAGACAUGGGAACU` the bound/input enrichment was 0.474 ratio.
The bound/input enrichment of `AAGGUGAUGACUAUGUUUGUCCAACGACAGGUAUUUUCGGAGAGCAAAGAUGAGAUUGCUUUAGUCCUCUAUGGCACAGAUGGCACUGAUAAUGCCCUUGCUGGCAAGGACCAGUAUCAG` is reported as 0.205 ratio.
`ACCAUUUCUGAAUACACGGCUUUGUGUGUAGUUCACUUACGGUAUUAAAUUAUUAUUCUGCUUAGCUUAUAAUAAGGAUAAUUGCAUUUAAAGAGGUUACUGAAUGUUACUCUGAAACUU` gave a bound/input enrichment of 0.386 ratio.
The bound/input enrichment of `CUUCGGAAAAAAAAAUUACCUUUUCUGACAGUGCUUUCCCUCCCAUAGAUCCACGUUCAAGCUCAAAGAGCAAAGGCUUUGCACGGAGCUCAAACAUCUGAUGAAGAUUUUUGAGACAGA` is reported as 0.483 ratio.
The bound/input enrichment of `UCUGGCCACACUCGUGUGUAUGGUGUUUGCUUUGUGGACACUUCACUGGGCAAGUUUUUCAUCGGCCAGUUUUCGGAUGACCGCCACUGUUCCAGAUUUAGGACGCUAGUGGCUCACUAU` is reported as 0.197 ratio.
`CGGAAGUUCUUGAUUUAUCAUUUUUCUUGCUCGGGUUUUUCCUUUAGGAAAAGCCUAAAGAUUAGGUUGUAAGAAAAACAGAAGCCAUGUUUCGAAGACCUGUGUUACAGGUAUUUCGUC` has a bound/input enrichment of 0.24 ratio.
`AUGGAGAAGGAUUCUCUGCCCCGCUUUGUGCGCUCUGAAUUUUAUAAGGAGCUAAUCAAGUAGUCAUCUGGUCAGGCUAUGAAAUCAUCCUGUGAGUGUUGAGUUACAUCCUUUGUAGCA` has a bound/input enrichment of 0.252 ratio.
With `UCAUUUUUCUCUUUUCUUUCUUUCCUUUAGGAAAAGCCUAAAGAUUAGGUUGUAAGAAAAAUAGAAGCCAUGUUUCGAAGACCUGUGUUACAGGUAUUUCGUCAGUUUGUAAGACAUGAG` the bound/input enrichment was 0.469 ratio.
`AGUACUGACUCAGGCGGAUUUUGCAACACCAAGCUCAAGUAGCAAUUAUCUUAGUCACAGUAGGGUAGUUUUGGGGCUCUGUGGCCAGGGUUUUAUUCACAUGCAGGUUUGGAAAAUGUA` gave a bound/input enrichment of 2.7 ratio.
For `UCUUAACUUAUUCAUUUCUUAUUUUUAUAGCACUUAGUAAAUAUUGUUAGUCUUAGACAAUAGCUCACAUUUUUUGAGAAGCAUGCCCUCCCUGUCCAUUUGUCUUAUAACAUGACCCAG`, the bound/input enrichment was 361 ratio.
With `GAUAAGAAAAGCUUGUUGGAGACCCGCUUGCAUGUCACUGGCAGAGACCUGAGGUGUCAAAUAGCUGAAACCUUUGGAUUUCAAGAAAAUUACAUCAAGAUCGUAAUAAAUAAGAAACAG` the bound/input enrichment was 0.309 ratio.

Some of these lines once more (series 1):
Under “fitted relative affinity”, `GACGATCTCAGTTTCGAAACGTGCTAG` is recorded as 3.53 z-score.
`CTAATTCTCTTTTCACTTTCGTGCTAG` — result for “fitted relative affinity”: 5.22 z-score.
Under “fitted relative affinity”, `GACGGTATCGGTTTTCGGGACGTGCTA` is recorded as 2.67 z-score.
For `GACGGACTGGACTTTCGGTACGTGCTA`, “fitted relative affinity” read 3.18 z-score.
`TTAGGACTGCTGATCCTTTAGTGCTAG` — result for “fitted relative affinity”: -0.0626 z-score.
For `GACGGACTGGACAGTGGGGACGTGCTA`, “fitted relative affinity” read -0.805 z-score.
